Assay results of several laboratories.
Each line is one published result; not all experiments were run side by side. Numbers after ± are the reported error.
Cell line: RAW264.7

SMILES	assay	setting	scale	quantity	result
Cn1c(=O)c2c(ncn2CC(=O)N/N=C/C=Cc2ccccc2)n(C)c1=O	NO release, inhibitor, Griess	25 µM, LPS-stimulated	–	inhibition	65.4%
CCCCn1cc(C(=O)O)c(=O)c2cc(F)c(Nc3ccccc3Cl)c(N)c21	NO release, inhibitor, Griess	LPS-stimulated	–	IC50	140 µM
COc1cc(C=O)ccc1OC(=O)Cn1cnc2c1c(=O)n(C)c(=O)n2C	NO release, inhibitor, Griess	25 µM, LPS-stimulated	–	inhibition	65.4%
COC1=C[C@@H]2[C@@H]3Cc4ccc(OC)c(OC(=O)[C@H](CC(C)C)NC(=O)OC(C)(C)C)c4[C@]2(CCN3C)CC1=O	NO release, inhibitor, Griess	LPS-stimulated	–	IC50	59.5 µM
CC(C)C[C@@H](NC(=O)[C@H]1CCCN1C(=O)[C@@H](CC(C)C)NC(=O)[C@@H](Cc1c[nH]c2ccccc12)NC(=O)[C@@H](CCCCN)NC(=O)[C@@H](CCCCN)NC(=O)[C@@H](C)NC(=O)[C@@H](CC(C)C)NC(=O)[C@@H](C)NC(=O)[C@@H](CC(C)C)NC(=O)[C@@H](C)NC(=O)[C@@H](CC(C)C)NC(=O)[C@@H](CCCCN)NC(=O)[C@H](N)CCCCN)C(=O)N[C@H](C)C(=O)N[C@H](CCCCN)C(=O)N[C@H](CCCCN)C(=O)N[C@H](CC(C)C)C(=O)N[C@H](C)C(=O)N[C@H](CC(C)C)C(=O)N[C@H](C)C(=O)N[C@H](CC(C)C)C(=O)N[C@H](C)C(=O)N[C@H](CCCCN)C(=O)N[C@H](CCCCN)C(N)=O	cytotoxicity, MTT	four hours, 37 °C, serum-free medium	–	EC50	3.42 ± 0.16 µM
CC(C)[C@@H]1CC[C@@H](C)C[C@H]1OC(=O)Cn1cnc2c1c(=O)n(C)c(=O)n2C	NO release, inhibitor, Griess	25 µM, LPS-stimulated	–	inhibition	66.4%
COC1=C[C@@H]2[C@@H]3Cc4c(Br)cc(OC)c(OC(=O)c5ccnnc5)c4[C@]2(CCN3C)CC1=O	NO release, inhibitor, Griess	LPS-stimulated	–	IC50	53.4 µM
COc1ccc(-n2cc(C(=O)N3C[C@]4(OC(=O)c5ccccc5NC(C)=O)CC[C@H](OC)[C@@]56[C@@H]4C[C@@H]([C@@H]35)[C@@]3(O)C[C@H](OC)[C@H]4C[C@@H]6[C@]3(O)[C@H]4OC)nn2)cc1	western blot	30, 60 or 120 µM, 24 h, added: LPS 1 µg/mL	–	p-ERK/ERK ratio	inhibited
COC1=C[C@@H]2[C@@H]3Cc4c(Br)cc(OC)c(OC(=O)c5cnc(C)cn5)c4[C@]2(CCN3C)CC1=O	NO release, inhibitor, Griess	LPS-stimulated	–	IC50	48.7 µM
CC(C)C[C@@H](NC(=O)[C@@H](C)NC(=O)[C@@H](CC(C)C)NC(=O)[C@@H](CCCCN)NC(=O)[C@H](N)CCCCN)C(=O)N[C@H](C)C(=O)N[C@H](CC(C)C)C(=O)N[C@H](C)C(=O)N[C@H](CCCCN)C(=O)N[C@H](CCCCN)C(=O)N[C@H](Cc1c[nH]c2ccccc12)C(=O)N[C@H](CC(C)C)C(=O)N[C@H](C)C(=O)N[C@H](CC(C)C)C(=O)N[C@H](C)C(=O)N[C@H](CCCCN)C(=O)N[C@H](CCCCN)C(=O)N[C@H](CC(C)C)C(=O)N[C@H](C)C(=O)N[C@H](CC(C)C)C(=O)N[C@H](C)C(=O)N[C@H](CC(C)C)C(=O)N[C@H](C)C(=O)N[C@H](CCCCN)C(=O)N[C@H](CCCCN)C(N)=O	cytotoxicity, MTT	four hours, 37 °C, serum-free medium	–	EC50	7.31 ± 2.13 µM
CCCCn1cc(C(=O)O)c(=O)c2cc(F)c(Nc3cccc(Cl)c3)c(N)c21	nitric oxide production, Griess	24 h, added: LPS	–	IC50	2.17 ± 0.3 µg/mL
COC1=C[C@@H]2[C@@H]3Cc4ccc(OC)c(OC(=O)[C@@H]5CCCN5)c4[C@]2(CCN3C)CC1=O	NO release, inhibitor, Griess	LPS-stimulated	–	IC50	52.8 µM
COc1cc(C=O)ccc1OC(=O)CSc1nnc(Cn2cnc3c2c(=O)n(C)c(=O)n3C)o1	NO release, inhibitor, Griess	25 µM, LPS-stimulated	–	inhibition	86.4%
CC[C@H](C)[C@H](N)C(=O)Oc1c(OC)ccc2c1[C@@]13CCN(C)[C@@H](C2)[C@H]1C=C(OC)C(=O)C3	NO release, inhibitor, Griess	LPS-stimulated	–	IC50	60.4 µM
CC(C)C[C@@H](NC(=O)[C@@H](C)NC(=O)[C@@H](CC(C)C)NC(=O)[C@@H](CCCCN)NC(=O)[C@@H](CCCCN)NC(=O)[C@@H](CC(C)C)NC(=O)[C@@H](C)NC(=O)[C@H]1CCCN1C(=O)[C@@H](CC(C)C)NC(=O)[C@@H](Cc1c[nH]c2ccccc12)NC(=O)[C@@H](CCCCN)NC(=O)[C@@H](CCCCN)NC(=O)[C@@H](CC(C)C)NC(=O)[C@@H](C)NC(=O)[C@@H](CC(C)C)NC(=O)[C@@H](CC(C)C)NC(=O)[C@@H](C)NC(=O)[C@@H](CC(C)C)NC(=O)[C@@H](CCCCN)NC(=O)[C@H](N)CCCCN)C(=O)N[C@H](CC(C)C)C(=O)N[C@H](C)C(=O)N[C@H](CC(C)C)C(=O)N[C@H](CCCCN)C(=O)N[C@H](CCCCN)C(N)=O	cytotoxicity, MTT	four hours, 37 °C, serum-free medium	–	EC50	3.8 ± 0.34 µM
C=CCc1ccc(OC(=O)COC(=O)Cn2cnc3c2c(=O)n(C)c(=O)n3C)c(OC)c1	ELISA, refers to: IL-1β	10 µM, added: LPS	reference: LPS alone	inhibition	61%
COC1=C[C@@H]2[C@@H]3Cc4ccc(OC)c(OC(=O)CN)c4[C@]2(CCN3C)CC1=O	NO release, inhibitor, Griess	LPS-stimulated	–	IC50	53.4 µM
CC(C)C[C@@H](NC(=O)[C@@H](C)NC(=O)[C@@H](CCCCN)NC(=O)[C@H](N)CCCCN)C(=O)N[C@H](C)C(=O)N[C@H](Cc1c[nH]cn1)C(=O)N[C@H](C)C(=O)N[C@H](CC(C)C)C(=O)N[C@H](CCCCN)C(=O)N[C@H](CCCCN)C(=O)N[C@H](Cc1c[nH]c2ccccc12)C(=O)N[C@H](CC(C)C)C(=O)N1CCC[C@@H]1C(=O)N[C@H](C)C(=O)N[C@H](CC(C)C)C(=O)N[C@H](CCCCN)C(=O)N[C@H](CCCCN)C(=O)N[C@H](CC(C)C)C(=O)N[C@H](C)C(=O)N[C@H](Cc1c[nH]cn1)C(=O)N[C@H](C)C(=O)N[C@H](CC(C)C)C(=O)N[C@H](C)C(=O)N[C@H](CCCCN)C(=O)N[C@H](CCCCN)C(N)=O	cytotoxicity, MTT	four hours, 37 °C, serum-free medium	–	EC50	2.33 ± 0.3 µM

Repeated from above:
SMILES	assay	setting	scale	quantity	result
COC1=C[C@@H]2[C@@H]3Cc4ccc(OC)c(OC(=O)[C@@H]5CCCN5)c4[C@]2(CCN3C)CC1=O	NO release, inhibitor, Griess	LPS-stimulated	–	IC50	52.8 µM
